Measured values pooled from the literature.
Lines come from different studies, so protocols differ.
T1: HSP90AA1 723-732 C-terminal peptide E to K, N-terminal 5-carboxyfluorescein (Homo sapiens); DDTSRMEKVD
B1: ricA (Bacillus subtilis, UniProt O31779); chain MTLYSKKDIVQQARNLAKMISETEEVDFFKRAEAQINENDKVSTIVNQIKALQKQAVNLKHYEKHEALKQVEAKIDALQEELEEIPVIQEFRDSQMEVNDLLQLVAHTISNQVTNEIITSTGGDLLKGETGSKVKHSNNSCSL
B2: UGT1A9 (Homo sapiens, UniProt O60656); chain GKLLVVPMDGSHWFTMRSVVEKLILRGHEVVVVMPEVSWQLGRSLNCTVKTYSTSYTLEDLDREFKAFAHAQWKAQVRSIYSLLMGSYNDIFDLFFSNCRSLFKDKKLVEYLKESSFDAVFLDPFDNCGLIVAKYFSLPSVVFARGILCHYLEEGAQCPAPLSYVPRILLGFSDAMTFKERVRNHIMHLEEHLLCHRFFKNALEIASEILQTPVTEYDLYSHTSIWLLRTDFVLDYPKPVMPNMIFIGGINCHQGKPLPMEFEAYINASGEHGIVVFSLGSMVSEIPEKKAMAIADALGKIPQTVLWRYTGTRPSNLANNTILVKWLPQNDLLGHPMTRAFITHAGSHGVYESICNGVPMVMMPLFGDQMDNAKRMETKGAGVTLNVLEMTSEDLENALKAVINDKSYKENIMRLSSLHKDRPVEPLDLAVFWVEFVMRHKGAPHLRPAAHDLTWYQYHSLDVIGFLLAVVLTVAFITFKCCAYGYRKCLGKKGRVKKAHKSKTH
B3: Cdkn1b (Mus musculus, UniProt P46414); chain MSNVRVSNGSPSLERMDARQAEHPKPSACRNLFGPVNHEELTRDLEKHCRDMEEASQRKWNFDFQNHKPLEGRYEWQEVERGSLPEFYYRPPRPPKSACKVLAQESQDVSGSRQAVPLIGSQANSEDRHLVDQMPDSSDNPAGLAEQCPGMRKRPAAEDSSSQNKRANRTEENVSDGSPNAGTVEQTPKKPGLRRQT
B4: NRD1 6-151 (Saccharomyces cerevisiae, UniProt P53617); sequence looked up; chain DFQNFVATLESFKDLKSGISGSRIKKLTTYALDHIDIESKIISLIIDYSRLCPDSHKLGSLYIIDSIGRAYLDETRSNSNSSSNKPGTCAHAINTLGEVIQELLSDAIAKSNQDHKEKIRMLLDIWDRSGLFQKSYLNAIRSKCFA
B5: STUB1 (Homo sapiens, UniProt Q9UNE7); sequence looked up; chain MKGKEEKEGGARLGAGGGSPEKSPSAQELKEQGNRLFVGRKYPEAAACYGRAITRNPLVAVYYTNRALCYLKMQQHEQALADCRRALELDGQSVKAHFFLGQCQLEMESYDEAIANLQRAYSLAKEQRLNFGDDIPSALRIAKKKRWNSIEERRIHQESELHSYLSRLIAAERERELEECQRNHEGDEDDSHVRAQQACIEAKHDKYMADMDELFSQVDEKRKKRDIPDYLCGKISFELMREPCITPSGITYDRKDIEEHLQRVGHFDPVTRSPLTQEQLIPNLAMKEVIDAFISENGWVEDY
Sequence of UniProt Q5SKM8 (whole entry, looked up): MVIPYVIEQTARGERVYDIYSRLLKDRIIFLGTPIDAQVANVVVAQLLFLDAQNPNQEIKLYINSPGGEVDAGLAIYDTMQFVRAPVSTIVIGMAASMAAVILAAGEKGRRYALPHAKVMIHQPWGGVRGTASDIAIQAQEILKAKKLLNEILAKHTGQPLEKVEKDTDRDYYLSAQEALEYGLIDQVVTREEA
Sequence of UniProt P21555 (whole entry, looked up): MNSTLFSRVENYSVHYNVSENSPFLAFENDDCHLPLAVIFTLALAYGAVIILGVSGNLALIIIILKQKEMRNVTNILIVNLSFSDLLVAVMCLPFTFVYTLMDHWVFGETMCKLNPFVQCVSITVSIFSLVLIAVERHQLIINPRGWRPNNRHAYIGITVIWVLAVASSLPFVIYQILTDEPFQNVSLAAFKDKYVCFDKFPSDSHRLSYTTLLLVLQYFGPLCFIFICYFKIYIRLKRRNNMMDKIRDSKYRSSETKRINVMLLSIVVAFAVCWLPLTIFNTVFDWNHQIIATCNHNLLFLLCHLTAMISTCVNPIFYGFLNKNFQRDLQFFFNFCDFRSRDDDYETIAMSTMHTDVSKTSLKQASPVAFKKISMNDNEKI
Sequence of UniProt O95838 (whole entry, looked up): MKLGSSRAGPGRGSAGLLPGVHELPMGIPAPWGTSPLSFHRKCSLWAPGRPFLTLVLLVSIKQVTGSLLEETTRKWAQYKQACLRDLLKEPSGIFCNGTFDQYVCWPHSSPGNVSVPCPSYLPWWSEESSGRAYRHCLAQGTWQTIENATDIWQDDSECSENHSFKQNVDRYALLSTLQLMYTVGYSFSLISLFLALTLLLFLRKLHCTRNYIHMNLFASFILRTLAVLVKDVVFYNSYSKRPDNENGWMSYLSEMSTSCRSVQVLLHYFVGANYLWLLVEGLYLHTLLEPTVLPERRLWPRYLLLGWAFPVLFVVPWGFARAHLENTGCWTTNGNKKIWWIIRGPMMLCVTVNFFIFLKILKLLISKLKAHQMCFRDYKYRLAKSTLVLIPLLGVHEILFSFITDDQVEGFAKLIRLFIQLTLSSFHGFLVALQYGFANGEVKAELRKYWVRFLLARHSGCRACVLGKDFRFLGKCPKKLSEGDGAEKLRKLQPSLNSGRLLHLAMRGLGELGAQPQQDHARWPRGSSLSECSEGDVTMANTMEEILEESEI
Sequence of UniProt Q61457 (whole entry, looked up): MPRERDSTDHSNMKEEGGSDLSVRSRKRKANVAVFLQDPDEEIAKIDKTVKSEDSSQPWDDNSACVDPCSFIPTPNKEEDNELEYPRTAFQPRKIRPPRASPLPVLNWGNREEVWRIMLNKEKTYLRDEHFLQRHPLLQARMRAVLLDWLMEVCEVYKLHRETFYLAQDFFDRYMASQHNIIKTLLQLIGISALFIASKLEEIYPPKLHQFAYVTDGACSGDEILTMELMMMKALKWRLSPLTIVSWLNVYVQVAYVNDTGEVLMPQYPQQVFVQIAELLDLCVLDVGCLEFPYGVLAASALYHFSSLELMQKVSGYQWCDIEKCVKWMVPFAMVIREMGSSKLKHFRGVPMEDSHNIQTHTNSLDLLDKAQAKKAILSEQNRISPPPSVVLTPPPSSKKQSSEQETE
Sequence of UniProt P06535 (whole entry, looked up): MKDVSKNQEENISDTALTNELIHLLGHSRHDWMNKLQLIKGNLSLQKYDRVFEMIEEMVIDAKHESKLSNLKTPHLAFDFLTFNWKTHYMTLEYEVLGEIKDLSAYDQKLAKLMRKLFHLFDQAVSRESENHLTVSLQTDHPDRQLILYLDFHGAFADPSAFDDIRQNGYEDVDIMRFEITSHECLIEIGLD
Sequence of UniProt P70618 (whole entry, looked up): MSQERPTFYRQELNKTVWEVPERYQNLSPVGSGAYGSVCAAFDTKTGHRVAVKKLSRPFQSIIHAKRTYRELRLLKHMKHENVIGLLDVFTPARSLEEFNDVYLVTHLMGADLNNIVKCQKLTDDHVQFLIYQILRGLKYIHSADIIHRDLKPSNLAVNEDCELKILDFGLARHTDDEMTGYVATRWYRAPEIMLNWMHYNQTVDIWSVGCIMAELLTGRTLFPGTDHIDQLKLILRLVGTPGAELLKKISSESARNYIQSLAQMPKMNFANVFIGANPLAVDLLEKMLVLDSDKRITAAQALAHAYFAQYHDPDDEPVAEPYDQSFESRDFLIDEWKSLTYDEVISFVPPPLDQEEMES
Sequence of UniProt Q61851 (whole entry, looked up): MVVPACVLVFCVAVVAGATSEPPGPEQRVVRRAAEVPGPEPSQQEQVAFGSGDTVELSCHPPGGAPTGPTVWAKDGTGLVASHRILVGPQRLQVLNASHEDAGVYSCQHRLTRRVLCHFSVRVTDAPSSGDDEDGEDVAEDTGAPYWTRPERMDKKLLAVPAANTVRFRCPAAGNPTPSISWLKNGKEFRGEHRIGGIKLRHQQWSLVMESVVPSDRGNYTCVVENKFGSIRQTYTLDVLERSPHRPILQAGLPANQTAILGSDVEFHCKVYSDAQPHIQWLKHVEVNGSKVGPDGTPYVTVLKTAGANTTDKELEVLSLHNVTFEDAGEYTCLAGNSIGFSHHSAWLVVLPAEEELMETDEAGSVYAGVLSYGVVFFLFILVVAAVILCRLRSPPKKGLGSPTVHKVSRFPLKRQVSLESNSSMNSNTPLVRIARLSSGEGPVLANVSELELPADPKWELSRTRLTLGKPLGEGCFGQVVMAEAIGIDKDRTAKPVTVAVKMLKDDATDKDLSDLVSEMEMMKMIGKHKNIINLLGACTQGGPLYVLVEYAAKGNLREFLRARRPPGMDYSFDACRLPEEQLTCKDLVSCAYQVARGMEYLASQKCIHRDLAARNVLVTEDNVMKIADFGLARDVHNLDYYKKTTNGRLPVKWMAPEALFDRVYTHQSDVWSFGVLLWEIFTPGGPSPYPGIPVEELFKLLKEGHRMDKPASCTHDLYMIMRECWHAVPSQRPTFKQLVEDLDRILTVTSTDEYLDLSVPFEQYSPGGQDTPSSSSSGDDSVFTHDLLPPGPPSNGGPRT

Molecule = LVQKYCELHPLKPGCG (designed peptide; N-terminal bipyridyl thioether macrocycle, C-terminal amide); tested on = BRD4 fragment (Homo sapiens); assay = SPR; test system = peptide; how to read = baseline: L1G, higher = faster association; quantity = relative kon; result = 10 fold
Molecule = TFPI (Homo sapiens, UniProt P10646-1); tested on = F10 factor Xa; assay = factor Xa inhibition; test system = EA.hy926; setting = 100 µg/mL total protein, final, methyl-β-cyclodextrin; quantity = free factor Xa; result = 0.065 nM
Molecule = HMGN2 K30C, succinyl-lysine analogue at 30; tested on = H2A/H2B/H3/H4/Widom 601 DNA nucleosome (Xenopus laevis); assay = ITC; setting = 450 µM, KCl 10 mM; how to read = baseline: unmodified HMGN2, higher = weaker binding; quantity = relative Kd; result = 4 fold
Molecule = NPY mature (Homo sapiens, UniProt P01303); tested on = Npy1r (Rattus norvegicus, UniProt P21555); assay = membrane hyperpolarisation, agonist, whole-cell current clamp; test system = BLA pyramidal neurons, rat brain slices; quantity = EC50; result = 404 nM
Molecule = YAERPSRDHLYLPLEP (NFATC3 D-site peptide (Homo sapiens)); tested on = Mapk14, pT180, pY182 (Rattus norvegicus, UniProt P70618); assay = kinase activity, inhibitor, competitive kinase inhibition assay; test system = peptide; setting = with: ATP 1 mM; quantity = IC50; result = > 100 µM
Molecule = clpX fragment (Thermus thermophilus); tested on = clpP 1-194 (Thermus thermophilus, UniProt Q5SKM8); assay = peptidase activity, activator; setting = with: bortezomib; quantity = half-maximal activation concentration; result = 120 nM
Molecule = B1 (ricA); tested on = spo0B (Bacillus subtilis, UniProt P06535); assay = bacterial two-hybrid; test system = E. coli BTH101; setting = 16 hrs, 30 °C; how to read = baseline: T18–T25 negative control, higher = stronger interaction; quantity = β-galactosidase activity ratio; result = 11 ratio
Molecule = B2 (UGT1A9); tested on = Cc1c(-c2ccccc2)oc2cc(O)ccc2c1=O; assay = steady-state kinetics; setting = pH 7.4, 37 °C; quantity = Vmax; result = 0.00293 µmol/min/mg
Molecule = B3 (Cdkn1b); tested on = Ccne1 (Mus musculus, UniProt Q61457); assay = co-IP; test system = NIH-3T3, not purified; how to read = baseline: cells in monolayer, higher = more p21 bound; quantity = p21 in cyclin E complexes; result = 2 fold
Molecule = FGF8b (Homo sapiens); tested on = FGFR3 isoform IIIc (unknown, UniProt Q61851); assay = cell proliferation, MTT; test system = BaF3-FGFR3c; setting = 20 nM, 48 h, with: heparan sulfate 4.9 µg/mL; how to read = baseline: FGF 1 with heparin, higher = more proliferation; quantity = cell proliferation; result = 103%
Molecule = GLP-2 mature, D-Ala4, C-terminal amide; tested on = GLP2R (Homo sapiens, UniProt O95838); assay = cAMP, agonist; how to read = baseline: GLP-2, higher = more cAMP; quantity = relative cAMP production; result = 101%
Molecule = B4 (NRD1 6-151); tested on = Sen1 2053-2064 Y2058F, 5-FAM label (Saccharomyces cerevisiae); assay = fluorescence polarisation; how to read = baseline: wild-type NIM2, higher = weaker binding; quantity = fold increase in Kd; result = 30 fold
Molecule = B5 (STUB1); tested on = T1, HSP90AA1 723-732 C-terminal peptide E to K, N-terminal 5-carboxyfluorescein (Homo sapiens); assay = fluorescence polarisation; setting = Lys mutant tracer, with: 5-Fam peptide tracer 20 nM; how to read = baseline: wt Hsp90α tracer, higher = weaker binding; quantity = affinity change; result = > 3 fold

Repeated from above:
Molecule = clpX fragment (Thermus thermophilus); tested on = clpP 1-194 (Thermus thermophilus, UniProt Q5SKM8); assay = peptidase activity, activator; setting = with: bortezomib; quantity = half-maximal activation concentration; result = 120 nM
